Measurements pooled from the literature.
Every numbered part comes from another study and shows a few of its results, in no order. Substitutions count along the parent as printed.

Series 1
Target: Interferon regulatory factor 7, full length, phosphomimetic (IRF7, Homo sapiens, UniProt Q92985, residues 1-503, S471D/S472D/S475D/S476D/S477D/S483D/S484D/S487D)
Sequence of UniProt Q92985 (whole entry, unmodified, looked up): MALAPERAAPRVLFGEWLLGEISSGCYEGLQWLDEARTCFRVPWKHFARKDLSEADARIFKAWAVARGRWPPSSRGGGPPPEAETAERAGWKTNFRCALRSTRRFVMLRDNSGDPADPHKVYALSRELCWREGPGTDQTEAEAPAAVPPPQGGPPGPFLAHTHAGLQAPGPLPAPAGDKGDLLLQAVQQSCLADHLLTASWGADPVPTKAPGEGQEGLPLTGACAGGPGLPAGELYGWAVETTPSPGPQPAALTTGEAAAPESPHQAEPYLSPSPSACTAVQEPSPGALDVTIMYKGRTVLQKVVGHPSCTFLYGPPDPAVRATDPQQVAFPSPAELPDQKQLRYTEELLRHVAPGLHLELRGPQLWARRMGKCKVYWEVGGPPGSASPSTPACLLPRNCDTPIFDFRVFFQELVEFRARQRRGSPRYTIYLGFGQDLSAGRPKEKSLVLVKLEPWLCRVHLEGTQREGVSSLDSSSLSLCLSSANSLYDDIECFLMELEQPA
Technique: protein-binding microarray
Molecule type: double-stranded DNA, one strand shown
Medium: in vitro
Concentration: 2200 nM top
Notes: 60-bp whole probe
Together with: salmon DNA 0.4 mg/ml
Baseline: random background probes
Direction: higher = stronger binding
Constant ends, left off below: GCCTAGCAC … GTCTTGATTCGCTTGACGCTGCTG
Strand | fitted relative affinity [z-score]
GATATTATATCTGTGTTATTGTGCTAG | 1.03
AACGAACTGAGTTTCGAGACGTGCTAG | 2.05
TTAGAACTGGGGTTTCGATTAGTGCTA | 2.3
TTAGGACTGCTTTTGCTTTAGTGCTAG | 1.82
TTAGGATTCGGGACTGGGTTAGTGCTA | 0.0331
AAACAAGTTTCACGTCTTATAGTGCTA | 0.717
CTAGATATCAGACTGGATTAGTGCTAG | 0.114
TTTAAGCTCCTATCTTATGATGTGCTA | 0.335
TTAGATCTTAGTCTCGATTAGTGCTAG | 0.242
TTAGGACTGCTACTGCTTCAGTGCTAG | -0.105
TCATGCTTGGGTCTGGGACTGTGCTAG | -0.121
TTTGGTTTCGACTTTCGGTTAGTGCTA | 11.9
GACGACTCCAGTTTCGAGACGTGCTAG | 3.67
GACGGTATCGACTATCGAGACGTGCTA | -0.0707
GACGGTATCGCACTGGGGACGTGCTAG | -0.118
TCAGTTTTTCATTTTGTACTGTGCTAG | 3.28
TTAGGTATCGACACAGGGTTAGTGCTA | -0.199

Series 2
Target: Histone acetyltransferase KAT6A, both winged helices, GST fusion (KAT6A, Homo sapiens, UniProt Q92794, residues 1-181)
Technique: protein binding microarray
Molecule type: double-stranded DNA, one strand shown
Medium: in vitro
Concentration: not given
Notes: 8-mer, flanks averaged, mean of 2 arrays, mostly near background
Baseline: not given
Direction: higher = stronger binding
Construct (chain): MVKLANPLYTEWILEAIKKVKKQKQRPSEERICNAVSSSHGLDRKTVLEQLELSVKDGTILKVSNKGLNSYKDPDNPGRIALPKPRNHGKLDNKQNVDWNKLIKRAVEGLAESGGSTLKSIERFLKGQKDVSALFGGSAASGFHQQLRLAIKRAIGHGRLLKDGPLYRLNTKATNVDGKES
Strand | E-score
GAAGGCTA | -0.0989
ATGGTGCC | -0.0863
ACCGAACG | 0.144
ACTAAAAG | -0.0766
AACAAGAT | -0.0593
AATTTTAC | 0.0693
GGTGTAGA | -0.141
GCACAGAA | 0.0286
ATGCGAAT | 0.157
CCGCGGCC | 0.4
ATATAGCG | 0.154
CGTCGGGC | 0.28
ATCGCTCG | 0.108
GTATACAC | 0.109
GACAAGTA | -0.077
CACTAACC | -0.081

Series 3
Target: CRIPT, C-terminal peptide
Technique: DHFR complementation, deep sequencing
Medium: yeast
Notes: single substitutions, model-inferred values
Baseline: wild type
Direction: higher = weaker binding
Parent: ERBIN, PDZ domain 1 (human); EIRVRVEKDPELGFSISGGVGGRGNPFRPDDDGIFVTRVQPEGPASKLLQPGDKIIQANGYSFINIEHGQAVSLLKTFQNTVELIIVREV; partner TKNYKQTSV
Change | binding free energy change [kcal/mol]
V6C | 0.0504
T37H | 0.627
V4P | 0.719
G60K | 0.128
E67K | 0.157
G24I | 1.42
G52V | 0.416
R23E | -1.17
N25Y | 0.755
E1K | 0.0411
P51F | 0.303
E67M | 0.232
R23S | -0.848
F78T | 0.272
I2K | 0.082
N25P | 0.589
P26V | 1.08
L12H | 1.62
K54M | 0.162
L74W | -0.0847
K8Y | 0.604
I56H | 0.194
R23Q | -0.341
D53A | 0.881
A58N | 1.86

Series 4
Target: PABPC1L2, full length, GST fusion (mouse, UniProt A0ABA7IW68)
Technique: RNAcompete
Molecule type: RNA
Medium: in vitro
Concentration: 20 nM
Notes: 7-mer, probes averaged, single round
Baseline: mean of 7-mers
Direction: higher = stronger binding
Target sequence (chain): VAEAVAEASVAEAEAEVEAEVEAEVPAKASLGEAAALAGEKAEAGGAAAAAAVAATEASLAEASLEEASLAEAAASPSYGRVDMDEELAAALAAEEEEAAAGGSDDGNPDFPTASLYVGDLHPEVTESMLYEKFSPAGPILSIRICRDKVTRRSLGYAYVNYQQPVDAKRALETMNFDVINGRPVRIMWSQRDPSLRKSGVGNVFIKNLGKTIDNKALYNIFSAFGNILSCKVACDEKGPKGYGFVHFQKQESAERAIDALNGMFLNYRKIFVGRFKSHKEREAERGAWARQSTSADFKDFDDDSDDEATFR
Strand | 7-mer Z-score
CUAGGGC | -0.00289
GUCCGAA | -0.00108
AGUCUUG | -0.405
CGCAGCU | -0.18
GGAUGCA | 0.204
AGGUUAU | -0.0228
GUGGGAC | 0.262
CCUGAUG | -0.19
UUAGAGA | 0.106
CCGUCAU | -0.258
GUGCAGG | 0.126
ACUUGGC | 0.0895
GCGCACC | -0.115
UGCACUC | -0.338
UGCACGA | -0.104
GUCACCU | -0.213
CUUCUGG | -0.246
ACAGCCU | -0.175
GUGAUUA | -0.0645
AUCCUCA | -0.306
AACGGCU | 0.0787
CCCGUCU | -0.472
CCCUCUG | -0.353
ACCAUCC | -0.226
CAUCGGA | 0.0678

Series 5
Target: RNA binding protein fox-1 homolog 2, RRM domain, GST-SBP tag (RBFOX2, Homo sapiens, UniProt O43251-10, residues 100-194)
Technique: RNA Bind-n-Seq
Molecule type: RNA
Medium: in vitro
Concentration: 365 nM
Notes: natural RNA segment, single round, ends assumed
Baseline: no-protein control
Direction: higher = stronger binding
Constant ends, left off below: GGGAGUUCUACAGUCCGACGAUC … UGGAAUUCUCGGGUGCCAA
Strand | RBNS enrichment (R)
CUUUCCCAUGUACUCAGUUUAGCUCUCAAAGAAGGGGUGAAUCAUAAAGCCAGUGAAAAUUUCACCCUCUGAGGGAGUUCCCCAAUCUGAAGGGGAAGAGGGUGACCUCA | 0.512
AGGCGUCUGCAGUGCCCAGGGUGCUCAGGACCACCGGGGUCUGUCCUGGGGGAGGCAGGGGUUGGCAGACCCUUGCCUGCGUGGUGCCGUCCUGCUCAUGUGGUAGGCUA | 0.593
AUGGAGGCUCAGGUCCAUCAGAAUCAGGGACUUGUGAUUUCAGUCACCUUGCUUCUGGGUUGUGUUUCUUCUCUUACUACCUCACUGCACCUGGACACUAGAGUGGAUGA | 0.721
AUGAUGAUAGGGCAAGCAUUCUUCUAAUCGAUUUUAAUUGUCCUUUGUGUGAAAAACAAAACAAAACAAACAAAAAAACCCAGAAACUUAUCCAUAAAUAACUACAUGAC | 0.966
AUAUUUUCCCUCUCUUGCCUUUCUUAUUUGCAAUAAAAGGUAUUGAGCCAUUUUUUAAAUGACAUUUUUGAUAAAUUAUGUUUGUACUAGUUGAUGAAGGAGUUUUUUUU | 0.807
GCCUUGCCUGACCUCCCACCCUAGUGGCCACCGGGAAGGCUGAAGGGAGUGGACACCACAGGAAGACACAGGUUGGAGCAAAACUUGAAUAAUGUCCUUUAUCCUGAUUU | 0.548
CAGCACAAAGUUUUAAUGUCAUUGAGAGGGGAAACAAAGGGAAAAGAAAGCCUGUCUGGAGAAGUGUGAUGCCCAAGAAGCACGGAAAGCUACGCCGGUGGAAUGUCAGU | 7.04
UUCUGUAAGUUUUUGAGAGGCAAUUGGCAAUUUAGGAGGCAGCAGGGUCUGUUUUGGUCAAAUCUUGAAUUUCGUUGUUGCACUCUAGUGACUGAUCUUUGGGAAUGUCU | 0.64

A few entries again (series 3):
Change | binding free energy change [kcal/mol]
D53A | 0.881
I56H | 0.194
N25P | 0.589
K54M | 0.162
G24I | 1.42
P26V | 1.08
E67K | 0.157
